Results gathered from unrelated publications.
Each line is one published result; not all experiments were run side by side. ± marks the error that the study gave.

`NC[C@@H]1O[C@H](O[C@H]2[C@@H](O)[C@H](O[C@@H]3[C@@H](O)[C@H](N)C[C@H](N)[C@H]3O[C@H]3O[C@@H]4COCO[C@H]4[C@H](O)[C@H]3N)O[C@@H]2CO)[C@H](N)[C@@H](O)[C@@H]1O` has an IC50 of 241 ± 69.8 µg/mL (ribosome with human cytosolic A site; luciferase translation, cell-free translation).
For `CCCCCCCC(=O)N[C@@H](CCCCNS(=O)(=O)c1cccc2c(N(C)C)cccc12)C(=O)N[C@H](C(=O)N[C@@H](CCN)C(=O)N[C@H]1CCNC(=O)[C@H]([C@@H](C)O)NC(=O)[C@H](CCN)NC(=O)[C@H](CCN)NC(=O)[C@H](CC(C)C)NC(=O)[C@@H](Cc2ccccc2)NC(=O)[C@H](CCN)NC1=O)[C@@H](C)O`, “stoichiometry, first site” read 2 ± 0.3 (LPS, Escherichia coli; ITC; pH 7.0, 37 °C).
Under “fold change of IC50”, `CCCCC[N+](CCCCC)(CCCCC)CCCCC` is recorded as 2.1 fold (Shaker Δ6-46 (Drosophila); ion current, blocker, inside-out patch clamp; Xenopus oocytes; +40 mV, added: extracellular K+ 4 to 120 mM).
The EC50 of `C=CCn1nnc2c(NCc3ccc(C)s3)nc(N[C@H](CC)CO)nc21` is reported as 10.3 µM (Cav2.1 calcium channel; tail current integral, whole-cell patch clamp; HEK293 transfected with Cav2.1).
With `NC(CNC(CNC(CC(=O)O)C(=O)O)C(=O)O)C(=O)O` (stereo not drawn) the zinc loss was roughly 1.8 Zn equivalents (NDM-1 metallo-beta-lactamase; ICP-MS; concentration not given).
`NC[C@@H]1O[C@H](O[C@H]2[C@@H](O)[C@H](O[C@@H]3[C@@H](O)[C@H](N)C[C@H](N)[C@H]3O[C@H]3O[C@H](CO)[C@@H](OCCCO)[C@H](O)[C@H]3N)O[C@@H]2CO)[C@H](N)[C@@H](O)[C@@H]1O` gave an IC50 of 0.73 ± 0.19 µg/mL (Mycobacterium smegmatis ribosome wild type; translation, cell-free luciferase synthesis).
`C=CCn1cnc2c(NCc3ccc(C)s3)nc(N[C@H](CC)CO)nc21`: “tail current increase” 25 to 30% (Cav2.1 calcium channel; perforated patch clamp; HEK293 transfected; 50 µM, applied during step to +10 mV; relative to: maximum).
`COC[C@@H](NC(C)=O)C(=O)NCc1ccc(OCc2ccc(OC(F)(F)F)cc2)cc1` — result for “fraction of inactivated channels”: 0.91 ± 0.05 (voltage-gated sodium channel; whole-cell patch clamp; rat embryonic cortical neurons; 10 µM, at -50 mV).
`CC(C)C[C@H](NC(=O)[C@H](Cc1ccc(OP(=O)(O)O)cc1)NC(=O)[C@H](CCC(=O)O)NC(=O)[C@H](CC(=O)O)NC(=O)[C@H](C)NC(=O)[C@H](CC(=O)O)NC(=O)[C@@H](NC(=O)CCCCCNC(=O)CCCC[C@@H]1SC[C@@H]2NC(=O)N[C@@H]21)C(C)C)C(N)=O` gave a dephosphorylation of 24% (VH1 phosphatase).
For `CCO[C@H]1[C@H](O)[C@@H](N)[C@@H](O[C@H]2[C@H](O[C@@H]3O[C@H](CO)[C@@H](O[C@H]4O[C@@H](CN)[C@@H](O)[C@H](O)[C@H]4N)[C@H]3O)[C@@H](O)[C@H](N)C[C@@H]2N)O[C@@H]1CO`, the IC50 was 94.7 ± 31 µg/mL (ribosome with human cytosolic A site; luciferase translation, cell-free translation).
Under “V1/2 of fast inactivation”, `COC[C@@H](NC(C)=O)C(=O)NCc1ccc(OCc2cccc(Cl)c2)cc1` is recorded as -60 ± 2.1 mV (voltage-gated sodium channel; whole-cell patch clamp; rat embryonic cortical neurons; 10 µM).
For `CCCO[C@H]1[C@H](O)[C@@H](N)[C@@H](O[C@H]2[C@H](O[C@@H]3O[C@H](CO)[C@@H](O[C@H]4O[C@@H](CN)[C@@H](O)[C@H](O)[C@H]4N)[C@H]3O)[C@@H](O)[C@H](N)C[C@@H]2N)O[C@@H]1CO`, the IC50 was 0.14 ± 0.02 µg/mL (Mycobacterium smegmatis ribosome wild type; translation, cell-free luciferase synthesis).
`C[C@H](NC(=O)[C@@H]1CCCN1C(=O)[C@H](Cc1ccc(O)cc1)NC(=O)CNC(=O)[C@H](CO)NC(=O)[C@H](Cc1ccccc1)NC(=O)[C@@H](N)[C@@H](C)O)C(=O)N[C@@H](Cc1ccccc1)C(=O)O` has an outward current of 42.2 ± 7.2 pA (mu opioid receptor, rat; ion current, agonist, whole-cell patch clamp; Sprague Dawley rat, supraoptic nucleus neurons, brain slice; 100 nM, before CTOP, maximal response).
`CC(C)[C@H](NC(=O)CNC(=O)CNC(=O)[C@H](CCCNC(=N)N)NC(=O)[C@H](CS)NC(=O)[C@H](CCCNC(=N)N)NC(=O)[C@H](Cc1c[nH]cn1)NC(=O)CN)C(=O)N[C@@H](CS)C(=O)N[C@@H](Cc1ccc(O)cc1)C(=O)N[C@@H](CCCCN)C(=O)N[C@@H](CCCCN)C(=O)N[C@@H](CCCCN)C(=O)NCC(=O)NCC(=O)NCC(=O)N[C@@H](CO)C(=O)N[C@@H](CCCCNC(=O)CCCC[C@@H]1SC[C@@H]2NC(=O)N[C@@H]21)C(=O)O`: “coat protein binding” “no binding” (tobacco mosaic virus coat protein; Western blot; Tobacco mosaic virus).
With `C=CCO[C@H]1[C@H](O)[C@@H](N)[C@@H](O[C@H]2[C@H](O[C@@H]3O[C@H](CO)[C@@H](O[C@H]4O[C@@H](CN)[C@@H](O)[C@H](O)[C@H]4N)[C@H]3O)[C@@H](O)[C@H](N)C[C@@H]2N)O[C@@H]1CO` the IC50 was 0.14 ± 0.04 µg/mL (Mycobacterium smegmatis ribosome wild type; translation, cell-free luciferase synthesis).
With `COc1ccc2ccc3c(c2c1)C=[N+]1C2CCCCC2[N+]2=Cc4cccc(OC)c4[O][Au-]21[O]3.F[P-](F)(F)(F)(F)F` (stereo not drawn) the IC50 was 22.6 µM (Klebsiella pneumoniae thioredoxin reductase; inhibitor; carbapenem-resistant; added: DTNB).
The IC50 of `NC[C@@H]1O[C@H](O[C@H]2[C@@H](O)[C@H](O[C@@H]3[C@@H](O)[C@H](N)C[C@H](N)[C@H]3O[C@H]3O[C@H](CO)[C@@H](OCC(O)CO)[C@H](O)[C@H]3N)O[C@@H]2CO)[C@H](N)[C@@H](O)[C@@H]1O` (stereo partly drawn) is reported as 25.5 ± 2.3 µg/mL (ribosome with human cytosolic A site; luciferase translation, cell-free translation).
The IC50 of `CCCCCCCCC(=O)NCc1ccc(O)c(OC)c1` is reported as 3e-05 µg/mL (mAb 2-LD2; antibody binding, indirect competitive ELISA; added: coating antigen hapten 4-OVA).
`CC[C@H](C)[C@@H]1NC(=O)[C@H](Cc2ccc(O)cc2)NC(=O)[C@@H](N)CSSC[C@@H](C(=O)N2CCC[C@H]2C(=O)N2CCC[C@H]2C(=O)NCC(N)=O)NC(=O)[C@H](CC(N)=O)NC(=O)[C@H](CCC(N)=O)NC1=O` gave an Emax of 5350 RFU (oxytocin receptor (titi monkey); membrane hyperpolarisation; CHO cells).
With `CSCC[C@H](NC(=O)[C@@H](NC(=O)[C@H](C)N)[C@@H](C)O)C(=O)N[C@@H](Cc1c[nH]c2ccccc12)C(=O)N[C@@H](C)C(=O)N[C@@H](C)C(N)=O` the selectivity ratio was 2.7 (immunoproteasome and standard proteasome; substrate degradation, substrate, mass spectrometry; 25 µM, 4 h; relative to: immunoproteasome over standard proteasome).
With `CCCCCO[C@H]1[C@H](O)[C@@H](N)[C@@H](O[C@H]2[C@H](O[C@@H]3O[C@H](CO)[C@@H](O[C@H]4O[C@@H](CN)[C@@H](O)[C@H](O)[C@H]4N)[C@H]3O)[C@@H](O)[C@H](N)C[C@@H]2N)O[C@@H]1CO` the IC50 was 92.3 ± 9.2 µg/mL (ribosome with human cytosolic A site; luciferase translation, cell-free translation).

A few entries again:
With `NC(CNC(CNC(CC(=O)O)C(=O)O)C(=O)O)C(=O)O` (stereo not drawn) the zinc loss was roughly 1.8 Zn equivalents (NDM-1 metallo-beta-lactamase; ICP-MS; concentration not given).
`CC[C@H](C)[C@@H]1NC(=O)[C@H](Cc2ccc(O)cc2)NC(=O)[C@@H](N)CSSC[C@@H](C(=O)N2CCC[C@H]2C(=O)N2CCC[C@H]2C(=O)NCC(N)=O)NC(=O)[C@H](CC(N)=O)NC(=O)[C@H](CCC(N)=O)NC1=O` gave an Emax of 5350 RFU (oxytocin receptor (titi monkey); membrane hyperpolarisation; CHO cells).
